Measurements collected from several papers.
Every numbered part comes from another study and shows a few of its results, in no order.
UniProt P04629, sequence (whole entry, looked up): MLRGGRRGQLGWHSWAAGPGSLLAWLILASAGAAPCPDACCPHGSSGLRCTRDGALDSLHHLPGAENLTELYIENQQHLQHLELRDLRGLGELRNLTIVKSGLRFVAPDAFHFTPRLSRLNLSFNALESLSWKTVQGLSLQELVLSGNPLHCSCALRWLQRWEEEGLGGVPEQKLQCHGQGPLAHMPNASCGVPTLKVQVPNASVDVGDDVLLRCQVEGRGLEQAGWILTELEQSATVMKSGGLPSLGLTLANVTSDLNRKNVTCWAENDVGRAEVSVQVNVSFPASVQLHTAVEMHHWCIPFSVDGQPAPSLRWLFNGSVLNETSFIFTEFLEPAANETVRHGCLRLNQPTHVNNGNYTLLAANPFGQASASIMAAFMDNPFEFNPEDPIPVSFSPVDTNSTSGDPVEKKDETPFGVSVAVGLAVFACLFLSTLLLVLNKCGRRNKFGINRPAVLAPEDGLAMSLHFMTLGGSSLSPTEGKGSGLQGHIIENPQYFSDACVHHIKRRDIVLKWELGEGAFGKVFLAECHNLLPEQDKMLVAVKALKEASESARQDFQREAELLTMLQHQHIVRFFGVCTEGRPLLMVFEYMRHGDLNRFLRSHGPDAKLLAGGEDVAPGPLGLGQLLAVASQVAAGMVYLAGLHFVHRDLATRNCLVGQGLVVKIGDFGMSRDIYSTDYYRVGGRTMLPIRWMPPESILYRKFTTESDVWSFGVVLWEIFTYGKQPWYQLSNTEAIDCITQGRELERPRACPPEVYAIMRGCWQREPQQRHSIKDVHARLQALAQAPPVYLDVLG
UniProt P31749, sequence (whole entry, looked up): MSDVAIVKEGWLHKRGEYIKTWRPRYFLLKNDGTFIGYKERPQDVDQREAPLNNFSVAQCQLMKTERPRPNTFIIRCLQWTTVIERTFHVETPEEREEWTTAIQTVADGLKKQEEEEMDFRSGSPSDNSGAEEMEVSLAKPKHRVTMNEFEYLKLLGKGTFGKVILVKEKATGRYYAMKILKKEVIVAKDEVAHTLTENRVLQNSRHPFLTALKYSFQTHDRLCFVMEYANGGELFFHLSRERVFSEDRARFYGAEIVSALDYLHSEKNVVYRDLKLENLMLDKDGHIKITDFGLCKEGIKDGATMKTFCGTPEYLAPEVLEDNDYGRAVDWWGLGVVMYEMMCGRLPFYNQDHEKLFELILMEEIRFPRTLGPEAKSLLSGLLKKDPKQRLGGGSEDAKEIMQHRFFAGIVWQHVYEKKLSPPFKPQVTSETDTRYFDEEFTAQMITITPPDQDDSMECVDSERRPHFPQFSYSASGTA
UniProt O75914, sequence (whole entry, looked up): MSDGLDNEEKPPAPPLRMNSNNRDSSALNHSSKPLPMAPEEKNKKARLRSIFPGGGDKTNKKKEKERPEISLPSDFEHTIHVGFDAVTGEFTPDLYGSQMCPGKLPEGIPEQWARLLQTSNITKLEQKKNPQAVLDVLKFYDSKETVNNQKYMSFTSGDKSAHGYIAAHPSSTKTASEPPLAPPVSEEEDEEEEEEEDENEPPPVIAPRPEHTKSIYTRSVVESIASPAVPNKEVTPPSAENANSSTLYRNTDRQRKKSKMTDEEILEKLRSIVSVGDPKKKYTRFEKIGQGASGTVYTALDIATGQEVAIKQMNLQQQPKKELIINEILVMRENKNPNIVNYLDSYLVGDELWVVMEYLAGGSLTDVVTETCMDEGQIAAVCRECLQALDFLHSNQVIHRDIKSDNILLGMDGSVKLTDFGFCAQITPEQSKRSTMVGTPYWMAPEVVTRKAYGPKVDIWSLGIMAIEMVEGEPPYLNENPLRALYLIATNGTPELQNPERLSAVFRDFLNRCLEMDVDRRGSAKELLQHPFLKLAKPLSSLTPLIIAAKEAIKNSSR
UniProt P10721, sequence (whole entry, unmodified, looked up): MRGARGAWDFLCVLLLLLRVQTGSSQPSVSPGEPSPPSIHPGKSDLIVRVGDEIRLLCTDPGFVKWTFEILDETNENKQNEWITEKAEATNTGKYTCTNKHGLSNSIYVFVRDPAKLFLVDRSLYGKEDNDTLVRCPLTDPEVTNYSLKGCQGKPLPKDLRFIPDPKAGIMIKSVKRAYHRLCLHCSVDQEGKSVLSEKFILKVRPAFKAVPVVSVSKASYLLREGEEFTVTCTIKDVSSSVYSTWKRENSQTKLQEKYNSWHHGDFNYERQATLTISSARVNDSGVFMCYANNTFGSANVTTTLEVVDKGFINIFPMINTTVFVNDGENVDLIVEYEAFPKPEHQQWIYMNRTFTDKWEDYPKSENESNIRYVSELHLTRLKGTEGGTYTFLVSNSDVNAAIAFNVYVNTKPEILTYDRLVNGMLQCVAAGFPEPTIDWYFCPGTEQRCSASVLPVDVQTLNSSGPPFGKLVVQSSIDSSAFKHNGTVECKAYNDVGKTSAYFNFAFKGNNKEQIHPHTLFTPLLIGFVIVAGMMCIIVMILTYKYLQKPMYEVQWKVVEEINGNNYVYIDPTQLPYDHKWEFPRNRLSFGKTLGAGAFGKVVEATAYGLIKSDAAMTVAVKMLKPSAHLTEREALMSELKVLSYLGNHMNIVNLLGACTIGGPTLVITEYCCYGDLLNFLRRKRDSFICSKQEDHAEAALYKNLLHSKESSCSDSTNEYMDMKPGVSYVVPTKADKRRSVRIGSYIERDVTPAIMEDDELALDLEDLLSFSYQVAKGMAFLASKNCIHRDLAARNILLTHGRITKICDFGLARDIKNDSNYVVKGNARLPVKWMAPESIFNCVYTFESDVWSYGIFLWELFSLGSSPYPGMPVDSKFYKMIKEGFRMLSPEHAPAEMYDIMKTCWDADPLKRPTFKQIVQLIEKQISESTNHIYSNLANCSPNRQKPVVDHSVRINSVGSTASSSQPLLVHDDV

Set 1 — read-out: cell-free assay; technique: competition with immobilised ligand; concentration: 1 µM; measurement: remaining binding
Compound: CS(=O)(=O)c1cc(C2(NC(=O)c3cncc4c3cnn4-c3ccc(F)cc3)CC2)ccn1
KIT (Homo sapiens, UniProt P10721, D816H): 49%
AKT1 (Homo sapiens, UniProt P31749): 100%
NTRK1 (Homo sapiens, UniProt P04629): 96%
PAK3 (Homo sapiens, UniProt O75914): 100%

Set 2 — technique: EMSA with sequencing; form: double-stranded DNA, one strand shown; medium: in vitro; concentration: 10 and 20 nM; reference: negative control set to 0; direction: higher = stronger binding; measurement: normalised bound fraction
Target: Hepatocyte nuclear factor 3-alpha (Foxa1, Mus musculus, UniProt P35582, residues 1-468, full length assumed)
UniProt P35582, sequence (whole entry, looked up): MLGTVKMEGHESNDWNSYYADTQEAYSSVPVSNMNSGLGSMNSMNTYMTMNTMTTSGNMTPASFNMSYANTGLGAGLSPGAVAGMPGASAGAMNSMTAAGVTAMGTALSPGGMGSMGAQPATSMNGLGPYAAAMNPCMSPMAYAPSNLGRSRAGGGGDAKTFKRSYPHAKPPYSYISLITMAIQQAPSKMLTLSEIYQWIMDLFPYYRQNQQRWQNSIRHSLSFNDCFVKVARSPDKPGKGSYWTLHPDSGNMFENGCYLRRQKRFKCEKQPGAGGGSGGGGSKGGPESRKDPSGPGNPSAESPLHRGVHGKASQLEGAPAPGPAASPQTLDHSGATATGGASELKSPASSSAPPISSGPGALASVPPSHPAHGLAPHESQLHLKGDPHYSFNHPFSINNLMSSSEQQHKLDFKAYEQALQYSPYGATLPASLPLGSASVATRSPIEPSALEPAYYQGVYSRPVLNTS
Setting: whole designed probe, mean of two concentrations, ends assumed
Shared flanks, not repeated: GTGAGCGGTGCCCATTGATGGGGAAC … TTTCACTGGGATCGTGGGGAC
TCCTTTATCCCAACATGTTTATACAGACAAAACCAGGTTAAAATCGACACAAGGTCAAAAGAGGAAGGTCTTGAAATGGGGAGACGTCACAAAATAAACATGAAGTCTTGTGTACAAGCATCTGCAGAAGAGTTCAGCCTCACCACTTGGGTAATGCTGTTGGAATGTGGTCTGGGTTCACTGTATTTGAATG: 0.366 ratio
GTAATGGGGGACTGAGGTTCACTCTATAAGAAAGTTGTCCTCATTATTGGGACCTGATGTAAACAAAAGGAGTGTAAACATTGGGAGTTGTAATGTAAACACTGGGAGTTACTGTAAACATGCCATCATCATTCAAGGAAGGTAAACCCAGGAGCAAGAAGAGGAGCAATAAATGTGGGAATTTTGTTGAGAA: 0.525 ratio
TTTTCTGCCGGCAGTGCTTCTAGCAGTTGGGAGAATAAACCCCTCATTCCTGAGGGGAGCCTTGGTGGCCCCTCGCAGTGTTTACCATGTTAAGTAATCTTGGTAGGGTTGCTGAAGATTAGAGACGCCACAAAGAGGAGTGGGTTTGGGGAAGGCGATGAGCTCCATTTTGCACATAGTGAGTGTGAGGTGT: 0.113 ratio
CAAGTTTGTGGTCCAGGAGCAACAGGTTATGCCATACAGCCTAGGTGTGTAGTAGGCTACACACCGTCTATGTTTGTGTTGTACACTCTTTGTGCAAACATTGTTGATGAAATCTTCTCAGAACCCATGACTCATATACCCCTGTTGTTAAGCGATACATGACTGTACTTTTTTTAAAAAGTCCAAGGATATA: 0.438 ratio
ATCCACGAACCTGGCCCTGTCTGGTAACCACAGTGAACCATCGCAAGATACAGCACTATGTGCCCAGTTGGGCTGGTAATGACTCACAAATGTGTCATCTCTGGCACATCCTCAGGGACACGGAAGTGTACTTGTTTTTGGAGAGGGACTAGACCTTCATCCTTGAGGTGAAGAAGATTTTCTCTCCAGGGTG: -0.0702 ratio
AAGAATTAAAATAAACTTGACTAGTATCTCTGCAACCAAACATCAAATCAGTCTTGTTGGTCATTCGATTTAGACAGTATTCTTATGAGGAGCATGTTTACTCTGTATTTTTTTCTTCAGCTCAAGAGATTGTACTTTTGCATTTTTCTTCATAATCATTATCCTATTCATAGAATCAGTAATTAGTGAAATT: 0.219 ratio
AAGAAAAATTATGGCAAAAAAAAAAAGAAAAAAAAAGAAAAAAAAAGATTTCACCTTTCTTTTCCTTCCATGAGACAAGGGGCTAACAACTGTGTCAACATGAAGTTCTCCACTAGAGGGAACTAATTCCACGTCCTCCAATCGTGAGCTTCATCAGGATGTGTCTGAGAACAGTGCTCTCTCCATGTTTAGA: 0.166 ratio
ACTAAATACAAACGATTAGAGCGTCACGGAAGATTAGCAAACATTCTACTGCAAACAGCACTCCCAGATCCACAGAAACCAGGTCACTACTATGTAATCTTTTTGCACCACTTCGTAAACAGATAAAAATATCAAGTCAGTTTGGTGTAAACAGACCAACAGCAGGAGAAGCCAGCATCCTTCTTAGATGGGA: 0.271 ratio

Set 3 — read-out: enzyme activity; mode: inhibitor; concentration: 0.5 µM; reference: control; measurement: remaining activity
Target: High affinity nerve growth factor receptor (NTRK1, Homo sapiens, UniProt P04629)
COc1ccc(OC)c2c(=S)c3ccccc3[nH]c12: 87.5%
Cn1sc(=O)n(Cc2ccccc2)c1=O: 99.3%
O=C(Nc1cccc(Nc2cc(Nc3cccc(C(F)(F)F)c3)ncn2)c1)C1CC1: 99.6%
COc1cc2ncnc(Nc3ccc(F)c(Cl)c3)c2cc1OCCCN1CCOCC1: 103%
O=S(=O)(c1cccc2cnccc12)N1CCCNCC1: 89.6%
O=c1c2ccccc2[nH]c(=S)n1CCN1CCC(=C(c2ccc(F)cc2)c2ccc(F)cc2)CC1: 97%
O=C(O)c1ccc2c3c1cccc3c(=O)n1c3ccccc3nc21: 105%
C#Cc1cccc(Nc2ncnc3cc(OCCOC)c(OCCOC)cc23)c1: 102%
CCOC(=O)c1c(C)[nH]c(/C=C2\C(=O)Nc3ccccc32)c1C: 69.9%
NCCNc1ncc(C(N)=O)c(Nc2cccc(C(F)(F)F)c2)n1: 84.2%
Cn1c2ccccc2c2c3c(c4c5ccccc5n(CCC#N)c4c21)CNC3=O: 1.64%
O=C1NC(=O)C(c2cn(CCCO)c3ncccc23)=C1c1cnccn1: 88.1%
N#CC(C#N)=C(N)/C(C#N)=C/c1ccc(O)cc1: 102%
COc1cc2ncnc(Nc3ccc(Oc4ccccc4)cc3)c2cc1OC: 101%
Cc1cccc(-c2[nH]c(C(C)(C)C)nc2-c2ccc3c(c2)OCO3)n1: 96.5%

Set 4 — technique: protein-binding microarray; form: hairpin DNA; medium: in vitro; concentration: not given; reference: not given; direction: higher = stronger binding; measurement: median fluorescence; shared flanks, not repeated: GAGGCCA … TGGCCTCACACTC
Target: Protein C-ets-1, full length (ETS1, Homo sapiens, UniProt P14921, residues 1-441)
Setting: whole hairpin DNA, median over replicate spots
Residues (chain): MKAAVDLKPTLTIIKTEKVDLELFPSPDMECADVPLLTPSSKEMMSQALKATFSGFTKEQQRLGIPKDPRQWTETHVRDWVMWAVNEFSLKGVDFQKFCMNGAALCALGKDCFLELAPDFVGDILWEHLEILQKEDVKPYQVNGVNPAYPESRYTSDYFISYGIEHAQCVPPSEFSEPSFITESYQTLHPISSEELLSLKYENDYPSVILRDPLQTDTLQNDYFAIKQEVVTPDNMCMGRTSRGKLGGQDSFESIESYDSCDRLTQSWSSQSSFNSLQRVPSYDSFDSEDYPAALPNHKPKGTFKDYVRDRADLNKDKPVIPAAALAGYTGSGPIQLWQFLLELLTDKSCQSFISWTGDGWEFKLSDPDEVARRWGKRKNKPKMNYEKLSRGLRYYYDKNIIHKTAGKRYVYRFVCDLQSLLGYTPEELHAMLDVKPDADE
GCCGGACGTTGCCTCCTGGCAACGTCCGGC (5mC at 30): 2240 a.u.
GCCGGAAGTTGCCTCCTGGCAACTTCCGGC (5mC at 10 34): 1040 a.u.
TCCGGAAGTTGCCTCCTGGCAACTTCCGGA: 8710 a.u.
GTCGGAGGTTGCCTCCTGGCAACCTCCGAC (5mC at 31): 764 a.u.
GTCGGAAGATGCCTCCTGGCATCTTCCGAC: 948 a.u.
GTCGGAACTTGCCTCCTGGCAAGTTCCGAC (5mC at 15): 700 a.u.
GCCGGAACTTGCCTCCTGGCAAGTTCCGGC (5mC at 15): 2020 a.u.
GTCGCGAGTTGCCTCCTGGCAACTCGCGAC (5mC at 12 32): 556 a.u.

Excerpt of the above (set 3):
COc1cc2ncnc(Nc3ccc(Oc4ccccc4)cc3)c2cc1OC: 101%
CCOC(=O)c1c(C)[nH]c(/C=C2\C(=O)Nc3ccccc32)c1C: 69.9%
N#CC(C#N)=C(N)/C(C#N)=C/c1ccc(O)cc1: 102%
